{"data": "Experimental data from different studies", "note": "Parts stem from different laboratories: compare values within a part only. “And” joins repeats or separate records; there may be more than shown.", "UniProt P20309, sequence (whole entry, looked up)": "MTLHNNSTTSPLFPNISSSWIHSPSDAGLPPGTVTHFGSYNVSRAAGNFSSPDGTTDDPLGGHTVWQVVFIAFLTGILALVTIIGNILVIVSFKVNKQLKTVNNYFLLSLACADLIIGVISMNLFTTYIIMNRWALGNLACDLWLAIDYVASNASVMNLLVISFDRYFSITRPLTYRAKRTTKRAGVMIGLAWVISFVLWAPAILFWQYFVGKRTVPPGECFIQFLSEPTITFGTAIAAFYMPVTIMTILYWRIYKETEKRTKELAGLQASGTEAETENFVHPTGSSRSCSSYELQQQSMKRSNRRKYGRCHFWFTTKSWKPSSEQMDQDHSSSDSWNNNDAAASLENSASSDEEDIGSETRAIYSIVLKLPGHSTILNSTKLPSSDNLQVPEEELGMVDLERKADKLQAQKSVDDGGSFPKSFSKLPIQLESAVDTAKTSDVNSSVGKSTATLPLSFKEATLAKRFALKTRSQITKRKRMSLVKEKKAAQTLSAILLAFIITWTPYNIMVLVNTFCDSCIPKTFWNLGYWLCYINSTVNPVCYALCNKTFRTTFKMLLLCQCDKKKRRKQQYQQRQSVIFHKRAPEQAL", "UniProt P31645, sequence (whole entry, looked up)": "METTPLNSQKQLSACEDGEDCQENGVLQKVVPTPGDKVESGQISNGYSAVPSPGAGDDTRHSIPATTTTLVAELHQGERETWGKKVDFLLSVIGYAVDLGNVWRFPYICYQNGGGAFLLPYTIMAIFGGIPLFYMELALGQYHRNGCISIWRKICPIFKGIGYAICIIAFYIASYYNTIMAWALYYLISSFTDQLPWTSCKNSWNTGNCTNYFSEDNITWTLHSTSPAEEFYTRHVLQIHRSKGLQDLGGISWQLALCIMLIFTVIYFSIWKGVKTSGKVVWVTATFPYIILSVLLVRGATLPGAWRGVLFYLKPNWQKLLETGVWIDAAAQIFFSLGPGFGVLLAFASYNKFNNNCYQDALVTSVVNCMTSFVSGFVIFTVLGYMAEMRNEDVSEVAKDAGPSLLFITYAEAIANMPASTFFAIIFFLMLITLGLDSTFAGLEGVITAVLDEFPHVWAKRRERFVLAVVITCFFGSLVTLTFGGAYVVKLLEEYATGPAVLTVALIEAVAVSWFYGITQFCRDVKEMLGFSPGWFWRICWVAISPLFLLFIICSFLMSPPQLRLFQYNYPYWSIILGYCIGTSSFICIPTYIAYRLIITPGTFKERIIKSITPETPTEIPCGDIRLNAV", "UniProt P35372, sequence (whole entry, looked up)": "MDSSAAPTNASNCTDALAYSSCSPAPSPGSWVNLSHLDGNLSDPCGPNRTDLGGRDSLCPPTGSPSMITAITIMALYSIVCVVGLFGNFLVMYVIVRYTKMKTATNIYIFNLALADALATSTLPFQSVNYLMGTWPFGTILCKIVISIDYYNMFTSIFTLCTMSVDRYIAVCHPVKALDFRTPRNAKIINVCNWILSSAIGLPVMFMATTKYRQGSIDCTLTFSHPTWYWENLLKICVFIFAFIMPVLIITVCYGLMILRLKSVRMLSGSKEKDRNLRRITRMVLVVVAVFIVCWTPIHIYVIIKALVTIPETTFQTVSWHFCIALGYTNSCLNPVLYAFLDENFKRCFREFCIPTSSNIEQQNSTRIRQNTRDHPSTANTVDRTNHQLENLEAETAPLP", "UniProt P41145, sequence (whole entry, looked up)": "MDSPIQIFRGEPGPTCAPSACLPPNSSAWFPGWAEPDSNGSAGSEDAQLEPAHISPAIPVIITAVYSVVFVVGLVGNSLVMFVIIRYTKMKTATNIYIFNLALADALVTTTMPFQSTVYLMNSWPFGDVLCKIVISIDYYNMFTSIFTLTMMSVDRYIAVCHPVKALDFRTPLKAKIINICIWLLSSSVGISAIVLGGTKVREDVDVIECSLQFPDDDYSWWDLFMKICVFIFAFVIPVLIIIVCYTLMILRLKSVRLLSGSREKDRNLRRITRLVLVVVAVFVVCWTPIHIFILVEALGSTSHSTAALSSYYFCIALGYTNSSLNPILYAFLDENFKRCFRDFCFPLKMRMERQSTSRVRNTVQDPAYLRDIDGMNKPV", "UniProt P23975, sequence (whole entry, looked up)": "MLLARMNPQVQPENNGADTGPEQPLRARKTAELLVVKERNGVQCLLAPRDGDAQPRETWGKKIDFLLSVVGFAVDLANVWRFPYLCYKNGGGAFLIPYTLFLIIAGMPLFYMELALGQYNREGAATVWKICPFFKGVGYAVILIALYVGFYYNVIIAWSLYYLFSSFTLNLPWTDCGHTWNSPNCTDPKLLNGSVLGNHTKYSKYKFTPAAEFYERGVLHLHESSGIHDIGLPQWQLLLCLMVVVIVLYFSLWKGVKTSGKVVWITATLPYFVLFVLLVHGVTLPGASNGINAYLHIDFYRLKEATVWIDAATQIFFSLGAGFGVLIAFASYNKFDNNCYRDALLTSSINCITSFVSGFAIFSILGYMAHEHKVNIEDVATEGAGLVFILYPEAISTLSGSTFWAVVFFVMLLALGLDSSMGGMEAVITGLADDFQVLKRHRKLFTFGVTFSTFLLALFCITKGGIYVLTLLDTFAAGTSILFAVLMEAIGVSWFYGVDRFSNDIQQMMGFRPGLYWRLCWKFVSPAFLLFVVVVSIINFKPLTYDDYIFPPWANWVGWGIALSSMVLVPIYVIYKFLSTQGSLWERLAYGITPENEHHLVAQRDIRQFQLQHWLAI", "UniProt P21918, sequence (whole entry, looked up)": "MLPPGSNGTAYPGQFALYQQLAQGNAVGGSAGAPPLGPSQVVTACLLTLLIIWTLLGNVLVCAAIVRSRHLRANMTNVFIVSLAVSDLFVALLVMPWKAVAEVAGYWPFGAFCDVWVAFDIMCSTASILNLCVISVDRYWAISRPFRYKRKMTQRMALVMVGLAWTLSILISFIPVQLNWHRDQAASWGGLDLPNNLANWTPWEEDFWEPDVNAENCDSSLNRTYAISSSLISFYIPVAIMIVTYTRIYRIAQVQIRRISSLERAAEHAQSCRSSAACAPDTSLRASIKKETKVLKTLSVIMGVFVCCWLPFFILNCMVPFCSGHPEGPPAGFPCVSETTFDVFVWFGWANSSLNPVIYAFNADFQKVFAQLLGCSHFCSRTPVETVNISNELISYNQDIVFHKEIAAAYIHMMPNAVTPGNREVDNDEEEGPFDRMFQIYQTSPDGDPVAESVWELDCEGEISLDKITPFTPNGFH", "UniProt P9WI81, sequence (whole entry, looked up)": "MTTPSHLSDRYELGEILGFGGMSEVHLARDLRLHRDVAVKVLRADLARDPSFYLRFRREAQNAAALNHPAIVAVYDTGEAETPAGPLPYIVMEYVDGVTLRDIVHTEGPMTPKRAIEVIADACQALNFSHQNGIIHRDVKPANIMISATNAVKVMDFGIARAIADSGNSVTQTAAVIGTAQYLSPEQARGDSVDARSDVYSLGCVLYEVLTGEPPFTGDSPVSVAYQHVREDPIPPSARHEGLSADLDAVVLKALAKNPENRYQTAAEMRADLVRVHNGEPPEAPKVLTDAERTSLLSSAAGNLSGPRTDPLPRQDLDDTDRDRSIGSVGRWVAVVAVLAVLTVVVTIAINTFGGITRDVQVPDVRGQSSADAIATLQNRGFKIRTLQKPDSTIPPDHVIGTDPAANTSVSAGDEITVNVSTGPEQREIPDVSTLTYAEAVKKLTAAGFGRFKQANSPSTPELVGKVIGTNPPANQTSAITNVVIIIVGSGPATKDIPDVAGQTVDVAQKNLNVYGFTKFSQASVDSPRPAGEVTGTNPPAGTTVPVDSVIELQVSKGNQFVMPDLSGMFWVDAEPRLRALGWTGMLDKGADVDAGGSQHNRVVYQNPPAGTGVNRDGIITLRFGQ", "UniProt Q01959, sequence (whole entry, looked up)": "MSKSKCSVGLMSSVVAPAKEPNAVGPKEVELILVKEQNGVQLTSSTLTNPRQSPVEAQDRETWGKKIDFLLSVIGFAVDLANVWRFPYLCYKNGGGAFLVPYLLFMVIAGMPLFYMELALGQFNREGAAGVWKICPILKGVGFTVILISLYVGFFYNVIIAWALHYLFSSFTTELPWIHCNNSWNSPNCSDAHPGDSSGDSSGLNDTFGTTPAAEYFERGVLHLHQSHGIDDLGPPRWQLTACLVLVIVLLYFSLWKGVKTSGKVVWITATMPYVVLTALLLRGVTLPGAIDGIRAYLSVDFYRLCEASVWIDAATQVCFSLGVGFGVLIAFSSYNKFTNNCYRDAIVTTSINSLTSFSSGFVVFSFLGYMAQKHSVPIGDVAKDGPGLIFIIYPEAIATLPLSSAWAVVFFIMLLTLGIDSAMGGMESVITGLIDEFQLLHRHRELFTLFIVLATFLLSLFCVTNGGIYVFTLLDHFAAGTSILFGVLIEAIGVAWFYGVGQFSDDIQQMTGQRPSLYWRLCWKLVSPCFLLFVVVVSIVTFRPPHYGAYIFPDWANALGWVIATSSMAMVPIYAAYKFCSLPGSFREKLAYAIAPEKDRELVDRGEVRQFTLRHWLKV"}
{"data": "Series 1", "cell line": "HEK-293T/ACE2", "tested at": "concentration not given", "time": "16 (unit not given)", "reference": "vehicle"}
{"SMILES": "CNS(=O)(=O)Cc1ccc2[nH]cc(CCN(C)C)c2c1", "viability [%]": 101}
{"SMILES": "COc1ccc2c(c1)c(CC(=O)O)c(C)n2C(=O)c1ccc(Cl)cc1", "viability [%]": 100}
{"SMILES": "C[C@]12CC[C@@H]3c4ccc(OS(=O)(=O)O)cc4CC[C@H]3[C@@H]1CCC2=O", "viability [%]": 101}
{"SMILES": "CC(=O)NS(=O)(=O)c1ccc(N)cc1", "viability [%]": 98.1}
{"SMILES": "OC[C@@H](O)[C@@H](O)[C@H](O)[C@@H](O)CO", "viability [%]": 101}
{"SMILES": "CC(=O)Nc1ccc(O)cc1", "viability [%]": 91.1}
{"data": "Series 2", "Compound": "c1ccc(Oc2ccc(Nc3c4c(nc5ccccc35)CCC4)cc2)cc1", "organism": "Leishmania donovani"}
{"observed": "parasite growth", "strain": "DD8 amphotericin B-resistant", "sample": "intracellular amastigotes", "tested at": "0.2 µM", "inhibition": "12% and 8% and 11%"}
{"observed": "parasite growth", "tested at": "6.66 µM", "setting": "promastigote", "inhibition": "41%"}
{"observed": "parasite growth", "strain": "DD8 amphotericin B-resistant", "sample": "promastigotes", "tested at": "0.066 µM", "inhibition": "1% and 2%"}
{"observed": "parasite growth", "strain": "DD8 amphotericin B-resistant", "sample": "promastigotes", "tested at": "0.033 µM", "inhibition": "4% and 2% and 1%"}
{"observed": "parasite viability", "method": "resazurin", "strain": "DD8", "sample": "promastigotes", "tested at": "6.66 µM", "inhibition": "99% and 100% and 91%"}
{"data": "Series 3", "SMILES": "CCCCN(CCCC)C(=O)CN1C[C@H](c2cc(OC)c3c(c2)OCO3)[C@@H](C(=O)O)[C@@H]1CC(C)(C)CCC", "observed": "binding", "method": "radioligand binding", "tested at": "10 µM"}
{"target": "SLC6A4 (Homo sapiens, UniProt P31645)", "inhibition [%]": 15.3}
{"target": "DRD5 (Homo sapiens, UniProt P21918)", "inhibition [%]": 17}
{"target": "SLC6A3 (Homo sapiens, UniProt Q01959)", "inhibition [%]": -0.591}
{"target": "CHRM3 (Homo sapiens, UniProt P20309)", "inhibition [%]": -9.94}
{"target": "OPRM1 (Homo sapiens, UniProt P35372)", "inhibition [%]": 14.2}
{"target": "SLC6A2 (Homo sapiens, UniProt P23975)", "inhibition [%]": -19.9}
{"target": "OPRK1 (Homo sapiens, UniProt P41145)", "inhibition [%]": -1.47}
{"data": "Mixed results"}
{"SMILES": "COc1ccc2[nH]c3c4[nH]c5ccc(OC)cc5c4c4c(c3c2c1)C(=O)NC4=O", "target": "Serine/threonine-protein kinase PknB (pknB, Mycobacterium tuberculosis, UniProt P9WI81)", "observed": "binding", "tested at": "1 µM", "quantity": "remaining binding", "result": "67%"}
